Measured values from different studies.
Each line is one published result; not all experiments were run side by side. Several values in a cell are separate wells, animals, samples, runs or records. ± marks the error that the study gave.
Cell line: SK-OV-3

`Cc1n[nH]c2nc(-c3ccc(Cl)cc3)c3c(NC(=O)c4ccccc4)nnc-3n12` has a cell growth of 108% (SRB; 10 µM, NCI60 single-dose screen; baseline: untreated).
`Cn1cncc1C1=CN(c2ncnc3[nH]cnc23)CCS1` has a GI50 of 6800 nM (ovarian cancer).
`C[C@H](Nc1ccc2c(c1)OCCn1cc(N3C(=O)OC[C@H]3C(F)F)nc1-2)C(N)=O` gave an IC50 of 578 nM (FOXO1 translocation, kinase translocation reporter; 2 h).
`CCn1cc(-c2cc(Cn3ccoc3=N)cc3c2CCN([C@@H](C)c2cc(OC)ccn2)C3=O)c(C(F)(F)F)n1` has an EC50 of over 30000 nM (cell growth, inhibitor; 120 h).
`O=C(Nc1nnc2n3c(Cc4ccccc4)n[nH]c3nc(-c3ccc(Cl)cc3)c1-2)c1ccccc1` gave a cell growth of 103% (SRB; 10 µM, NCI60 single-dose screen; baseline: untreated).
For `O=C(O)c1ccc(-c2c[nH]c3ncc(-c4ccccc4)cc23)cc1C1CCCC1`, “relative cell number” read 109% (ATP; 2D monolayer culture; 0.01 µM, 4 days; baseline: untreated).
For `O=C(Nc1nnc2n3c(nc(-c4ccc(Cl)cc4)c1-2)SCC3=O)c1ccccc1`, the cell growth was 94.7% (SRB; 10 µM, NCI60 single-dose screen; baseline: untreated).
`Cc1nc(NC(=O)N2CCC[C@H]2C(N)=O)sc1-c1ccnc(C(C)(C)C(F)(F)F)c1` has an IC50 of 76.5 nM (western blot, item: phospho-PKB/Akt Ser473; 2 h).
`Cn1cc(-c2ccc(F)c(C(F)(F)F)c2)nc1C1CCN(c2ncnc3[nH]ncc23)CC1` — result for “relative cell number”: 103% (ATP; 2D monolayer culture; 1 µM, 4 days; baseline: untreated).
The IC50 of `C=CC(=O)N1CCC(CCCC(=O)N2CCN(c3nc(-c4cnc(N)nc4C(F)F)nc(N4CCOCC4)n3)CC2)CC1` is reported as 21.5 nM (Akt phosphorylation, inhibitor, in-cell western, item: Akt pSer473; 1 h).
For `CC(C)C[C@@H](C=O)NC(=O)[C@H](CC(C)C)NC(=O)[C@H](CC(C)C)NC(=O)OCc1ccccc1`, “LATS protein level” read 0.83 ± 0.16 (Western blot; 3D culture in gellan gum; 3 µM, 24 h, unit not given; baseline: β-actin).
The TGI of `C#C[C@@]1(O)[C@@H](CO)O[C@@H](n2cc(Br)c3c(N)ncnc32)[C@@H]1O` is reported as 439 nM (SRB; NCI-60 screen).
The IC50 of `C=CC(=O)N1CCC(COCC(=O)N2CCN(c3nc(-c4cnc(N)nc4C(F)F)nc(N4CCOCC4)n3)CC2)CC1` is reported as 19.5 nM (Akt phosphorylation, inhibitor, in-cell western, item: Akt pSer473).
`[NH2][Pt]([NH2])([Cl])[Cl]` has an IC50 of 24800 ± 2700 nM (cell viability, CCK-8; single drug).
The TGI of `CCN(CC)c1ccc(C=NNC(=O)CSc2nc3ccccc3c(=O)n2Cc2ccc(S(N)(=O)=O)cc2)c(O)c1` is reported as over 100000 nM (NCI five-dose screen).
For `C[C@H](Nc1ccc2c(c1)OCCn1cc(N3C(=O)OC[C@H]3C(F)F)nc1-2)C(N)=O`, “Hill coefficient GR curve” read 0.698 (cell growth, CellTiter-Glo; 120 h).
The cell growth of `Cc1cc(-c2ccccc2)n(-c2nc(-c3ccc(Cl)cc3)c3c(NC(=O)c4ccccc4)nnc-3[nH]2)n1` is reported as 97.8% (SRB; 10 µM, NCI60 single-dose screen; baseline: untreated).
Under “relative cell number”, `CCCCCCOC(=O)[C@]1(O)C[C@@H]2O[C@@]1(C)n1c3ccccc3c3c4c(c5c6ccccc6n2c5c31)C(=O)NC4` is recorded as 97.8% (ATP; 1 µM, 4 days, 3D U-bottom low-attachment; baseline: untreated).
With `C#C[C@@]1(O)[C@@H](CO)O[C@@H](n2cc(Cl)c3c(N)ncnc32)[C@@H]1O` the TGI was 573 nM and 467 nM (SRB; NCI-60 screen).
`C=CC(=O)N1CCC(COCC(=O)N2CCN(c3nc(-c4cnc(N)nc4C(F)F)nc(N4CCOC[C@@H]4C)n3)CC2)CC1` has an IC50 of 21.1 nM (western blot, item: phospho-PKB/Akt Ser473; 2 h).
For `Clc1ccc(C2(c3ccc(-c4cn[nH]c4)cc3)CCNCC2)cc1`, “relative cell number” read 82.7% (ATP; 3D gellan gum culture; 0.01 µM, 4 days; baseline: untreated).
For `O=C1NCCc2[nH]c(-c3ccncc3)cc21`, the IC50 was over 10000 nM (MTS; NCI60 panel).
With `C=CC(=O)N1CCC(C(=O)NCCN2CCN(c3nc(-c4cnc(N)nc4C(F)F)nc(N4CCOCC4)n3)CC2)CC1` the IC50 was 68.4 nM (Akt phosphorylation, inhibitor, in-cell western, item: Akt pSer473; 1 h).
`O=C(Nc1nnc2[nH]c(=S)[nH]c(-c3ccc(Cl)cc3)c1-2)c1ccccc1` has a cell growth of 105% (SRB; 10 µM, NCI60 single-dose screen; baseline: untreated).
`CC/C(=N\NC(=O)NCc1cccc(O)c1)c1ccc(O)c(C)c1O` — result for “TAZ band intensity”: 0.22 ± 0.07 (Western blot; 10 µM, 6 h, 3D gellan gum culture, unit not given; baseline: DMSO).
`C=CC(=O)N1CCC(Cc2cccc(C(=O)N3CCN(c4nc(-c5cnc(N)nc5C(F)F)nc(N5CCOCC5)n4)CC3)c2)CC1` gave an IC50 of 40.7 nM (Akt phosphorylation, inhibitor, in-cell western, item: Akt pSer473).
`Cc1cc(=O)[nH]n1-c1nc(-c2ccc(Cl)cc2)c2c(NC(=O)c3ccccc3)nnc-2[nH]1` has a cell growth of 108% (SRB; 10 µM, NCI60 single-dose screen; baseline: untreated).
`CCn1c(-c2nonc2N)nc2cncc(CNC3CCNCC3)c21`: “relative cell number” 113% (ATP; 0.1 µM, 4 days, 3D U-bottom low-attachment; baseline: untreated).

For quick reference, copied from above:
`C=CC(=O)N1CCC(Cc2cccc(C(=O)N3CCN(c4nc(-c5cnc(N)nc5C(F)F)nc(N5CCOCC5)n4)CC3)c2)CC1` gave an IC50 of 40.7 nM (Akt phosphorylation, inhibitor, in-cell western, item: Akt pSer473).
The IC50 of `C=CC(=O)N1CCC(CCCC(=O)N2CCN(c3nc(-c4cnc(N)nc4C(F)F)nc(N4CCOCC4)n3)CC2)CC1` is reported as 21.5 nM (Akt phosphorylation, inhibitor, in-cell western, item: Akt pSer473; 1 h).
`Cn1cncc1C1=CN(c2ncnc3[nH]cnc23)CCS1` has a GI50 of 6800 nM (ovarian cancer).
`O=C(Nc1nnc2n3c(Cc4ccccc4)n[nH]c3nc(-c3ccc(Cl)cc3)c1-2)c1ccccc1` gave a cell growth of 103% (SRB; 10 µM, NCI60 single-dose screen; baseline: untreated).
